{"data": "Measurements gathered from unrelated publications", "note": "Each numbered part is a random draw from the data of one study; scales do not carry over between parts. Several values in a cell are separate wells, animals, samples, runs or records.", "UniProt P11229, sequence (whole entry, looked up)": "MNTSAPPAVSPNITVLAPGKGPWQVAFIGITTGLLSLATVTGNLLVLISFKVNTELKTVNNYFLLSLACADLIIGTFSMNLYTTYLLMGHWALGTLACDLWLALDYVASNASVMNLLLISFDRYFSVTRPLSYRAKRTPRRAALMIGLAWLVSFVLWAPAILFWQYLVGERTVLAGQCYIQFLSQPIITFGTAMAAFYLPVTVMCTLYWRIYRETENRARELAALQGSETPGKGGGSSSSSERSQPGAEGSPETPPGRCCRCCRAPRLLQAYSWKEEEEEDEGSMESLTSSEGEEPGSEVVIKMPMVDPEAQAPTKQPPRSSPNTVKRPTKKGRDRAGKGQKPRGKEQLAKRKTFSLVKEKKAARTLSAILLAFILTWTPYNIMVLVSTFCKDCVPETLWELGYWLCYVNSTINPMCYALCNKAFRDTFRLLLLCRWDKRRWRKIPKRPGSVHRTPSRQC", "UniProt P41143, sequence (whole entry, looked up)": "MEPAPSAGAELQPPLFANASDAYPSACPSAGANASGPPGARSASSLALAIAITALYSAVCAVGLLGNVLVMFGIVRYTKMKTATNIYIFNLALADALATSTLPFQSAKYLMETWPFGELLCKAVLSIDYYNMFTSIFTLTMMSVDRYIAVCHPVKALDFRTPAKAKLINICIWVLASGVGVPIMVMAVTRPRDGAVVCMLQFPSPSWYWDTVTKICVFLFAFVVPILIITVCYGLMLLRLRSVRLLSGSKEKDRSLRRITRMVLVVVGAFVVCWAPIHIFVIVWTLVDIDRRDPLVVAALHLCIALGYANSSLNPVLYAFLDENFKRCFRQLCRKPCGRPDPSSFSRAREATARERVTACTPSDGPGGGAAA", "UniProt P21918, sequence (whole entry, looked up)": "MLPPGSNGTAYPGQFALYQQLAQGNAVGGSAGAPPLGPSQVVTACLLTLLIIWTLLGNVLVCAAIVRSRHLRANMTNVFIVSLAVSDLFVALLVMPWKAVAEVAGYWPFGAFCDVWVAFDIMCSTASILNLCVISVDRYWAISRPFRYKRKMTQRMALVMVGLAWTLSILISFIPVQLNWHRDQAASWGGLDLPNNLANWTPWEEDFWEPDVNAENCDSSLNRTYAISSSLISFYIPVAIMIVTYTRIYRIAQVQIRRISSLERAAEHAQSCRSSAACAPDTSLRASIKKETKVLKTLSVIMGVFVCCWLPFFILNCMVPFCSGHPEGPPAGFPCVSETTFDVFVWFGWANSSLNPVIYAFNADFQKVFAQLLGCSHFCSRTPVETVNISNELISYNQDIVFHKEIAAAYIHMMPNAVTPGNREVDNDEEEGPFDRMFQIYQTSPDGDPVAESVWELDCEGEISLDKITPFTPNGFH", "UniProt P20309, sequence (whole entry, looked up)": "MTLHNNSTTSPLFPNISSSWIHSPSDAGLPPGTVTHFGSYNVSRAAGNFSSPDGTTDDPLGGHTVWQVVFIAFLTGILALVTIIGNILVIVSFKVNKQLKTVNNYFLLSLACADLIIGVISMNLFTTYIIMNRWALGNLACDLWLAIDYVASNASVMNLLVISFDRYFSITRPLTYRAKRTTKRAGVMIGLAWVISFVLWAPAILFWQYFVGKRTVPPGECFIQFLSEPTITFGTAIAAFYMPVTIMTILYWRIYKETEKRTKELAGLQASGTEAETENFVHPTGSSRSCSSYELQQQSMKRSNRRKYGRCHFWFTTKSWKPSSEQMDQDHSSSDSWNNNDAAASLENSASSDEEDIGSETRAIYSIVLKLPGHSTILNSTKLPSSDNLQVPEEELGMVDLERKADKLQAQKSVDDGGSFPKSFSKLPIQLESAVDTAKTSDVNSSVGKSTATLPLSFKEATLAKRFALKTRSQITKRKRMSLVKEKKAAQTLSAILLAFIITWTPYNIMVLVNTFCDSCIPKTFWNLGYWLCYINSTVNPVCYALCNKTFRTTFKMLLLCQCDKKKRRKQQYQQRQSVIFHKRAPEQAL", "UniProt P41145, sequence (whole entry, looked up)": "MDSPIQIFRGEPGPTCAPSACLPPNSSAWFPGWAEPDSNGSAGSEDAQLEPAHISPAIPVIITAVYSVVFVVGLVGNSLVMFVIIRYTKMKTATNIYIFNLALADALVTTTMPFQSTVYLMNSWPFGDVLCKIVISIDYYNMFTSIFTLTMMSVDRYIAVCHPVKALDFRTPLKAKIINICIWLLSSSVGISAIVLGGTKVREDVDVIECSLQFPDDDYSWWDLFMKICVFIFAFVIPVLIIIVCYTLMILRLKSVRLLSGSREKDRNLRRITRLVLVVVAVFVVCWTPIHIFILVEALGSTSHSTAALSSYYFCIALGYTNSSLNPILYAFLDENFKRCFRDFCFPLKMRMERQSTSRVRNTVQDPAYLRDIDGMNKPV"}
{"data": "Study 1", "SMILES": "CCOc1ccc(Nc2c3c(nc4ccccc24)CCC3)cc1", "organism": "Leishmania donovani"}
{"observed": "parasite growth", "tested at": "16.66 µM", "notes": "promastigote", "inhibition": "62%"}
{"cells": "THP-1 intracellular amastigotes", "strain": "DD8 resistant line", "tested at": "8 µM", "notes": "resistance confirmation", "inhibition": "61%"}
{"observed": "parasite growth", "strain": "DD8 amphotericin B-resistant", "sample": "promastigotes", "tested at": "0.016 µM", "inhibition": "2% and 1% and 5%"}
{"observed": "parasite growth", "tested at": "2 µM", "notes": "intracellular, amastigote", "inhibition": "24%"}
{"observed": "parasite growth", "strain": "DD8 amphotericin B-resistant", "sample": "intracellular amastigotes", "tested at": "40 µM", "inhibition": "100% and 102%"}
{"observed": "parasite growth", "tested at": "80 µM", "notes": "intracellular, amastigote", "inhibition": "100%"}
{"observed": "parasite growth", "strain": "DD8 amphotericin B-resistant", "sample": "promastigotes", "tested at": "66.66 µM", "inhibition": "100% and 99%"}
{"observed": "parasite growth", "strain": "DD8 amphotericin B-resistant", "sample": "intracellular amastigotes", "tested at": "0.04 µM", "inhibition": "2% and 1% and 5%"}
{"data": "Study 2", "cell line": "HEK-293T-ACE2-TMPRSS2", "method": "cell count", "tested at": "concentration not given"}
{"Compound": "CC(=O)N1CCCSc2ccc(S(=O)(=O)NCCCN3CCC(C)CC3)cc21", "viability": "93%"}
{"Compound": "CCOc1cccc(N2C(=O)CC(N3CCC(C(N)=O)CC3)C2=O)c1 (stereo not drawn)", "viability": "82%"}
{"Compound": "CC(C)(C)NC(=S)N/N=C/C=N/NC(=S)NC(C)(C)C", "viability": "65%"}
{"Compound": "Cc1ccoc1C(=O)N1CCCn2nc(C(=O)Nc3ccccc3)cc2C1", "viability": "77%"}
{"Compound": "COCCCN1CN(c2cc(Cl)cc(Cl)c2)c2nc(C)c(C)c(=O)n2C1", "viability": "75%"}
{"Compound": "CC(C)c1cc(C(=O)NCc2noc(-c3cccs3)n2)n(C)n1", "viability": "65%"}
{"Compound": "Cc1nc(C)c(C(=O)N2CCN(C(=O)c3nc(-c4ccc(N5CCC(C)CC5)cc4)no3)CC2)s1", "viability": "68%"}
{"Compound": "O=C1CN(c2ncnc3sc4c(c23)CCCCC4)CCN1", "viability": "100%"}
{"Compound": "CCS(=O)(=O)N1CSC[C@@H]1C(=O)NCCc1csc(-c2ccccc2)n1", "viability": "65%"}
{"Compound": "CN(C)c1ccc(C2NC(=O)c3ccccc3N2)cc1[N+](=O)[O-] (stereo not drawn)", "viability": "104%"}
{"Compound": "c1nc(NCCc2ccc3c(c2)OCCO3)c2c3c(sc2n1)CCCC3", "viability": "70%"}
{"Compound": "CCn1nc(C)c(CCN(C)S(=O)(=O)c2ccc3c(c2)CC(C)N3C(C)=O)c1C (stereo not drawn)", "viability": "77%"}
{"Compound": "Cc1cc2c(c(=O)n1CCN(C)C)C(c1cccc(Br)c1)C(C#N)=C(N)O2 (stereo not drawn)", "viability": "82%"}
{"Compound": "O=C(CN(Cc1ccco1)S(=O)(=O)c1ccccc1F)Nc1ccc(N2CCCCC2)cc1", "viability": "97%"}
{"Compound": "CCCS(=O)(=O)c1ncc(Cl)c(C(=O)Nc2cccc(C(F)(F)F)c2)n1", "viability": "66%"}
{"Compound": "COc1ccc(CNC(=O)c2scc(-c3cccc(C)c3)c2-n2cccc2)cc1OC", "viability": "69%"}
{"Compound": "COc1ccc(-c2noc(CC3CCN(C(=O)C4(c5ccc(OC)cc5)CC4)CC3)n2)cc1", "viability": "81%"}
{"Compound": "CC1=CC(=O)C(CCOCCC2=CC(=O)C(C)=CC2=O)=CC1=O", "viability": "78%"}
{"Compound": "O=C(Cn1ncc(Cl)c(Cl)c1=O)NC(=O)NCc1ccco1", "viability": "99%"}
{"Compound": "Cc1cccc(NC(=O)c2cc3cc(N(C)S(=O)(=O)c4ccccc4)ccc3s2)c1", "viability": "67%"}
{"Compound": "Cc1ccc(-c2noc(C(=O)N3CCCC3)n2)cc1S(=O)(=O)N1CC=C(c2ccccc2)CC1", "viability": "77%"}
{"Compound": "Cc1cnc(C)c(N2CCN(Cc3ccc(C#CC(C)(C)O)s3)CC2)n1", "viability": "94%"}
{"Compound": "Cc1cc(Cl)c2oc(C(=O)N(Cc3c(C)nn(C)c3C)C3CC3)c(C)c2c1", "viability": "71%"}
{"Compound": "Cc1ccc(CCNc2ncnc3scc(-c4ccc(F)cc4)c23)cc1", "viability": "80%"}
{"Compound": "Cc1cnc(C)c(-c2ccc3c(c2)CC(CNC(=O)CSc2ccccn2)O3)n1 (stereo not drawn)", "viability": "107%"}
{"data": "Study 3", "cell line": "HEK-293T", "observed": "pseudovirus infection", "method": "FDA-approved drug library counter-screen", "organism": "VSV pseudotyped with VSV-G", "tested at": "10 µM", "time": "16 h", "relative to": "vehicle-treated"}
{"Compound": "CC(=O)c1ccc(S(=O)(=O)NC(=O)NC2CCCCC2)cc1", "GFP-positive cells": "86.3%"}
{"Compound": "CC(C)c1nc(CN(C)C(=O)N[C@H](C(=O)N[C@@H](Cc2ccccc2)C[C@H](O)[C@H](Cc2ccccc2)NC(=O)OCc2cncs2)C(C)C)cs1", "GFP-positive cells": "80.6%"}
{"Compound": "C=CC1=C(C(=O)O)N2C(=O)[C@@H](NC(=O)/C(=N\\O)c3csc(N)n3)[C@H]2SC1", "GFP-positive cells": "112%"}
{"Compound": "N=C(N)N/N=C/c1c(Cl)cccc1Cl", "GFP-positive cells": "111%"}
{"Compound": "NC(=O)c1cn(Cc2c(F)cccc2F)nn1", "GFP-positive cells": "98.6%"}
{"Compound": "CN1C[C@H](C(=O)N[C@]2(C)O[C@@]3(O)[C@@H]4CCCN4C(=O)[C@H](Cc4ccccc4)N3C2=O)C[C@@H]2c3cccc4[nH]cc(c34)C[C@H]21", "GFP-positive cells": "141%"}
{"Compound": "CN(C)CCCC1(c2ccc(F)cc2)OCc2cc(C#N)ccc21 (stereo not drawn)", "GFP-positive cells": "101%"}
{"Compound": "CN1CCC(OC(c2ccccc2)c2ccccc2)CC1", "GFP-positive cells": "116%"}
{"Compound": "CCCN(CCC)CCc1cccc2c1CC(=O)N2", "GFP-positive cells": "114%"}
{"Compound": "CC(C)[C@H]1CC[C@H](C(=O)N[C@H](Cc2ccccc2)C(=O)O)CC1", "GFP-positive cells": "91.7%"}
{"Compound": "C[C@]12CCC3=C4CCC(=O)C=C4CC[C@H]3[C@@H]1CC[C@@]2(O)CC#N", "GFP-positive cells": "114%"}
{"Compound": "CCCCc1ncc(/C=C(\\Cc2cccs2)C(=O)O)n1Cc1ccc(C(=O)O)cc1", "GFP-positive cells": "122%"}
{"Compound": "NS(=O)(=O)c1cc2c(cc1Cl)NCNS2(=O)=O", "GFP-positive cells": "104%"}
{"Compound": "CC(C)Cn1cnc2c(N)nc3ccccc3c21", "GFP-positive cells": "115%"}
{"Compound": "CCCCCCCCCC(=O)O[C@H]1CC[C@H]2[C@@H]3CCC4=CC(=O)CC[C@@H]4[C@H]3CC[C@]12C", "GFP-positive cells": "116%"}
{"Compound": "C=CC[N+]1([C@H]2C[C@H]3[C@@H]4CC[C@H]5C[C@H](O)[C@@H](N6CCOCC6)C[C@]5(C)[C@H]4CC[C@]3(C)[C@H]2OC(C)=O)CCCC1", "GFP-positive cells": "98.2%"}
{"Compound": "Nc1nc2c(c(=O)[nH]1)N(C=O)C(CNc1ccc(C(=O)N[C@@H](CCC(=O)O)C(=O)O)cc1)CN2 (stereo partly drawn)", "GFP-positive cells": "95.9%"}
{"Compound": "CCC1(c2ccccc2)C(=O)NCNC1=O", "GFP-positive cells": "111%"}
{"Compound": "Cc1c(-c2ccc(O)cc2)n(Cc2ccc(OCCN3CCCCCC3)cc2)c2ccc(O)cc12", "GFP-positive cells": "115%"}
{"Compound": "CC(C[N+](C)(C)C)OC(N)=O (stereo not drawn)", "GFP-positive cells": "130%"}
{"Compound": "COC(=O)N[C@H](C(=O)N1CCC[C@H]1c1nc(-c2ccc(-c3ccc(-c4c[nH]c([C@@H]5CCCN5C(=O)[C@@H](NC(=O)OC)C(C)C)n4)cc3)cc2)c[nH]1)C(C)C", "GFP-positive cells": "105%"}
{"Compound": "Cc1cc2nc3c(=O)[nH]c(=O)nc-3n(C[C@H](O)[C@H](O)[C@H](O)CO)c2cc1C", "GFP-positive cells": "74.1%"}
{"Compound": "O=C(CCCCC(=O)Nc1c(I)cc(I)c(C(=O)O)c1I)Nc1c(I)cc(I)c(C(=O)O)c1I", "GFP-positive cells": "88%"}
{"Compound": "C=CC(N)CCC(=O)O (stereo not drawn)", "GFP-positive cells": "132%"}
{"Compound": "O=C(c1ccc(F)c(F)c1Nc1ccc(I)cc1F)N1CC(O)([C@@H]2CCCCN2)C1", "GFP-positive cells": "145%"}
{"data": "Study 4", "SMILES": "CN(C)C(=O)Cn1cc(-c2nc(C3(c4ccc(-c5cnc(N)nc5)cc4)CC3)no2)cn1", "observed": "cell-free assay", "tested at": "10 µM"}
{"target": "OPRD1 (Homo sapiens, UniProt P41143)", "inhibition [%]": -5.53}
{"target": "DRD5 (Homo sapiens, UniProt P21918)", "inhibition [%]": 22.8}
{"target": "OPRK1 (Homo sapiens, UniProt P41145)", "inhibition [%]": 16.2}
{"target": "CHRM1 (Homo sapiens, UniProt P11229)", "inhibition [%]": -14.4}
{"target": "CHRM3 (Homo sapiens, UniProt P20309)", "inhibition [%]": -11.2}
{"note": "Repeated from above (study 4):"}
{"target": "OPRK1 (Homo sapiens, UniProt P41145)", "inhibition [%]": 16.2}
{"target": "OPRD1 (Homo sapiens, UniProt P41143)", "inhibition [%]": -5.53}
{"target": "CHRM3 (Homo sapiens, UniProt P20309)", "inhibition [%]": -11.2}
